Assay results from different studies.
Each numbered part is a random draw from the data of one study; scales do not carry over between parts.

Set 1 — method: protein binding microarray; molecule type: double-stranded DNA, one strand shown; matrix: in vitro; tested at: not given; relative to: not given; direction: higher = stronger binding; endpoint: E-score
Target: Histone acetyltransferase KAT6A, winged helix 1, GST fusion (KAT6A, Homo sapiens, UniProt Q92794, residues 1-85)
Setting: 8-mer, flanks averaged, mean of 2 arrays, mostly near background
Residues (chain): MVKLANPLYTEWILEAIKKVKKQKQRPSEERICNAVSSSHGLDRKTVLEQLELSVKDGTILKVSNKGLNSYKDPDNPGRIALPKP
ACATTCTA: -0.207
GTTAATCA: -0.126
AACCCGAA: 0.0569

Set 2 — method: protein-binding microarray; molecule type: double-stranded DNA, one strand shown; matrix: in vitro; tested at: 250 nM; setting: 60-bp whole probe; with: salmon DNA 0.4 mg/ml; relative to: random background probes; direction: higher = stronger binding; endpoint: log fluorescence
Target: Interferon regulatory factor 5, full length, phosphomimetic (IRF5, Homo sapiens, UniProt Q13568-2, residues 1-514, K96S/S451D/S453D/S456D/S462D)
GCCTAGCACGACGATTCCAATTTCGAGACGTGCTAGGTCTTGATTCGCTTGACGCTGCTG: 2.38 z-score
GCCTAGCACGACGGTTTCGGGTTTCAGGACGTGCTAGTCTTGATTCGCTTGACGCTGCTG: 7.43 z-score
GCCTAGCACAACTGCATCCCAGGAGCTGGGTGCTAGGTCTTGATTCGCTTGACGCTGCTG: -0.723 z-score

Set 3 — method: RNA Bind-n-Seq; molecule type: RNA; matrix: in vitro; tested at: 365 nM; relative to: no-protein control; direction: higher = stronger binding; endpoint: RBNS enrichment (R)
Target: RNA binding protein fox-1 homolog 2, RRM domain, GST-SBP tag (RBFOX2, Homo sapiens, UniProt O43251-10, residues 100-194)
Setting: natural RNA segment, single round, ends assumed
Target sequence (chain): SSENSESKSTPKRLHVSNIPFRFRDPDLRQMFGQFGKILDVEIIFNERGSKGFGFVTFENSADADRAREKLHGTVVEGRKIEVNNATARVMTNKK
GGGAGUUCUACAGUCCGACGAUCCCCCCAAUCCAUGAACCAAGACCAUUGAAUUCUUGGUUGAGGAAACAAACAUGACCCUAAAUCUUGACUACAGUCAGGAAAGGAAUCAUUUCUAUUUCUCCUCCAUGGGAUGGAAUUCUCGGGUGCCAA: 0.246
GGGAGUUCUACAGUCCGACGAUCGCGCCCGGCGUUUGUGCAGGGGUGUCGGGAACGAACGCAGCCAGCGGGCAUCUGUGCGUGCGAGGAGACCCCUUCUCUCGGCCAAGUUUUUUCCCAUAACACCCACAUGGUGGAAUUCUCGGGUGCCAA: 0.385
GGGAGUUCUACAGUCCGACGAUCCAACAUAGCCAUAGUCCUUUGAAGUAAGUGGCUAGAAACAGCACUCUGGUUAUAAUUGCCCCAGGGCCUGAUUCAGGACUGACUCUCCACCAUAAAACUGGAAGCUGCUUUGGAAUUCUCGGGUGCCAA: 0.35

Mixed results
PhoQ, residues 284 288 289 292 302 303 NLAAMI
fold induction (PhoP, residues 12 14 15 18 19 SYFRT (Escherichia coli, UniProt P23836); Sort-seq, measured: YFP reporter; E. coli; PhoQ-PhoP variant library, with: 10 µM Mg2+; relative to: high Mg2+ state, higher = stronger signaling): 11.7

Repeated from above (set 3):
GGGAGUUCUACAGUCCGACGAUCCCCCCAAUCCAUGAACCAAGACCAUUGAAUUCUUGGUUGAGGAAACAAACAUGACCCUAAAUCUUGACUACAGUCAGGAAAGGAAUCAUUUCUAUUUCUCCUCCAUGGGAUGGAAUUCUCGGGUGCCAA: 0.246
